# Measured values collected from several papers.
# Compare with care: the assays were run in different laboratories. Values joined by “and” are separate records of one study, mostly repeats; a detail may differ. ± marks the error that the study gave.
# TGFBR2: TGF-beta receptor type-2 (TGFBR2, Homo sapiens, UniProt P37173)
# HTR2A: 5-hydroxytryptamine receptor 2A (HTR2A, Homo sapiens, UniProt P28223)
# HTR7: 5-hydroxytryptamine receptor 7 (HTR7, Homo sapiens, UniProt P34969)
# HTR2C: 5-hydroxytryptamine receptor 2C (HTR2C, Homo sapiens, UniProt P28335)
# HDAC4: Histone deacetylase 4 (HDAC4, Homo sapiens, UniProt P56524)
# nusB with NusE: Transcription antitermination protein NusB, with NusE (nusB, Bacillus subtilis, UniProt P54520)
# gag-pol integrase: Gag-Pol polyprotein, integrase (gag-pol, Human immunodeficiency virus type 1 group M subtype B, UniProt P04585)
# GPR84: G-protein coupled receptor 84 (GPR84, Homo sapiens, UniProt Q9NQS5)
SMILES,target,test,test system,conditions,measurement,value
Fc1ccc(-c2ncn(-c3ccc(-c4ccccc4)cc3)c2-c2ccncc2)cc1,TGFBR2,inhibitor,,1 µM,inhibition,48%
c1cc(N2CCN(CCCOc3ccc(CN4CCOCC4)cc3)CC2)c2ccsc2c1,HTR2A,,,10 µM,inhibition,101 ± 2.6%
O=C(CN1CCO[C@H](COc2cccnc2)C1)N1CCc2ccccc21,HTR7,radioligand binding,,"concentration not given, together with: [3H]LSD",inhibition,-1.2%
CC(C)c1noc2ncc(C(=O)c3ccccc3O)cc12,"SCN4A (Homo sapiens, UniProt P35499)","ion current, inhibitor, whole-cell patch clamp",,10 µM,inhibition,3.79% and 0.63% and 0.1% and 2.67% and 1.5%
Cc1ncc([N+](=O)[O-])n1C(=NO)c1ccccc1C(F)(F)F,kinase (MBP2 substrate),,,10 µM,inhibition,10.2%
Cc1ccc(OC[C@@H]2CN(CCN3CCc4ccccc43)CCO2)cn1,HTR2C,radioligand binding,,"concentration not given, together with: [3H]mesulergine",inhibition,7.1%
CN1CCN(c2cc(-c3ccncc3)c(-c3ccc4ccccc4c3)nn2)CC1,"GHSR (Homo sapiens, UniProt Q92847)","antagonist, FLIPR",,10 µM,inhibition,-19.7%
O=C(NO)c1ccc(CN2CCCCc3ccccc32)c(F)c1,HTR7,"radioligand binding, PDSP radioligand binding",,10 µM,inhibition,-9.14%
Cc1ccc(-n2nc(C)c3conc3c2=O)cc1,"GRM2 (Homo sapiens, UniProt Q14416)","cAMP accumulation, antagonist",,"10 µM, together with: glutamate 1 µM, forskolin",inhibition,-37%
CC(C)(NC(=O)O[C@@H]1CN2CCC1CC2)c1csc(-c2ccc(F)cc2)n1,"SETD7 (Homo sapiens, UniProt Q8WTS6)","enzyme activity, inhibitor",,100 µM,inhibition,no inhibition
O=C(NO)c1cncc(OS(=O)(=O)Oc2ccc3ccccc3c2)c1,HDAC4,,,10 µM,inhibition,33%
O=C1c2ccccc2CCN1CCCCN1CCN(c2cccc(Cl)c2Cl)CC1,HTR2C,radioligand binding,,"concentration not given, together with: [3H]mesulergine",inhibition,93.8%
O=C(C[C@@H](C(F)F)n1ccc(F)n1)N1CCC(O)(Cn2cnc3c(cnn3-c3ccc(F)cc3)c2=O)CC1,"USP7 (Homo sapiens, UniProt Q93009)","enzyme activity, inhibitor",,0.05 µM,inhibition,89.4% and 77.1%
O=C(O)c1cn(C2CC2)c2cc(N3CCNCC3)c(F)cc2c1=O,"gyrA (Escherichia coli K-12, UniProt P0AES4)","enzyme activity, inhibitor, DNA supercoiling",,0.1 µM,inhibition,35%
Cc1ccc(C(=O)C(C)CN2CCCCC2)cc1 (stereo not shown),Nedd8-cullin1 interaction,"neddylation, AlphaScreen",,100 µM,inhibition,23.5%
CCS(=O)(=O)c1nc(S(=O)(=O)c2ccccc2Cl)c(N2CCN(C)C(=O)[C@H]2C)s1,HTR7,,,10 µM,inhibition,7%
CCNC(=O)Nc1ccc(OC/C=C\COc2ccc(CCC(=O)O)cc2)cc1,nusB with NusE,"NusE binding, inhibitor, competitive ELISA",,25 µM,inhibition,21%
O=C(CN1CCO[C@H](COc2ccccc2)C1)N1CCc2ccccc21,HTR2A,radioligand binding,,"concentration not given, together with: [3H]ketanserin",inhibition,-11.3%
O=C(NO)c1cncc(OS(=O)(=O)Oc2ccc(-n3ccnc3)cc2)c1,HDAC4,,,10 µM,inhibition,38%
CCNC(=O)Nc1ccc(OC/C=C\COc2ccc(C[C@H](NC(=O)OC(C)(C)C)C(=O)O)cc2)cc1,nusB with NusE,"NusE binding, inhibitor, competitive ELISA",,25 µM,inhibition,35%
COc1cccc(F)c1Cn1cnc(-c2ccc(F)cc2)c1-c1ccncc1,TGFBR2,inhibitor,,1 µM,inhibition,24%
O=C(CN1CCO[C@@H](COc2ccccn2)C1)N1CCc2ccccc21,HTR2C,radioligand binding,,"concentration not given, together with: [3H]mesulergine",inhibition,28.7%
COc1ccc(-c2ccc3c(-c4ccccc4)cn(C)c3n2)cc1,gag-pol integrase,"strand transfer, inhibitor",HIV-1,10 µM,inhibition,39.3%
CC(C)NC(=O)COc1cccc(-c2nc(Nc3ccc4[nH]ncc4c3)c3ccccc3n2)c1,"UGT1A1 (Homo sapiens, UniProt P22309)",inhibitor,recombinant microsomes,0.1-100 µM,inhibition,inhibited
Clc1cccc(OC[C@@H]2CN(CCN3CCc4ccccc43)CCO2)c1,HTR2C,radioligand binding,,"concentration not given, together with: [3H]mesulergine",inhibition,79.1%
CN1CC(Oc2cnc(C#N)cc2-c2ccn3nc(NC(=O)C4CC4)cc3c2)C1,"MARK1 (Homo sapiens, UniProt Q9P0L2)","inhibitor, KinaseProfiler panel",,1 µM,inhibition,20%
Cc1cc(-c2ccnc3[nH]cc(F)c23)cc(F)c1[C@@]1(O)[C@H](C)CN(C(=O)CN)C[C@@H]1C,ROCK1 and ROCK2,"ATP probe binding, KiNativ, measured: Lys2 site",HEK293T cell lysate,10 µM,inhibition,60.2%
O=C(CCCN1CCC(O)(c2ccc(Cl)cc2)CC1)c1ccc(F)cc1,sigma-2 receptor (guinea pig),radioligand binding,,concentration not given,inhibition,99.6%
N=C(N)c1ccc(OC/C=C\COc2ccc(C(=N)N)cc2)cc1,nusB with NusE,"NusE binding, inhibitor, competitive ELISA",,25 µM,inhibition,0%
Cc1cc(-c2ccnc3[nH]cc(F)c23)cc(F)c1[C@@]1(O)[C@H](C)CN(C2CCS(=O)(=O)CC2)C[C@@H]1C,ROCK1 and ROCK2,"ATP probe binding, KiNativ, measured: Lys2 site",HEK293T cell lysate,0.1 µM,inhibition,-11.8%
CCN1CCN(Cc2ccc(NC(=O)c3ccc(C)c(/C=C/c4cnc5[nH]ccc5c4OC)c3)cc2C(F)(F)F)CC1,"NEK8 (Homo sapiens, UniProt Q86SG6)",,A-375,5 µM,inhibition,-27.6%
NOCc1ccc2nc(-c3ccccc3)c(Nc3ccc(C(=O)O)cc3)n2c1,"TDP1 (Homo sapiens, UniProt Q9NUW8)","enzyme activity, inhibitor",,"100 µM, unpurified compound",inhibition,-5.3% and 4.2% and 3.1%
COc1cc(C(=O)NS(=O)(=O)c2ccccc2C)ccc1Cc1cn(C)c2ccc(NC(=O)OC3CCCC3)cc12,"LRRC8A/LRRC8C (Homo sapiens, UniProt Q8IWT6+Q8TDW0, E6A)","VRAC current, inhibitor, whole-cell patch clamp",HCT116 LRRC8-/- cells,30 µM,inhibition,95.1%
CN1[C@@H]2CC[C@H]1C[C@@H](OC(=O)C(CO)c1ccccc1)C2 (stereo partly shown),"Muscarinic acetylcholine receptor M2 (Rattus norvegicus, UniProt P10980)",radioligand binding,rat,10 µM,inhibition,100%
O=C1c2ccccc2C(=O)C1c1ccccc1,Nedd8-cullin1 interaction,"neddylation, AlphaScreen",,100 µM,inhibition,33.7%
O=c1cc(N2CCN(Cc3cccc4ccccc34)CC2)[nH]c(=O)[nH]1,GPR84,"cAMP level, agonist",human cells,,EC50,0.151 ± 0.044 µM
Nc1ncnc2c1ncn2C1OC(CSCCNCc2cccc(-c3ccccc3)c2)C(O)C1O (stereo not shown),"N6-adenosine-methyltransferase catalytic subunit, with METTL14 (METTL3, Homo sapiens, UniProt Q86U44)",,,10 µM,inhibition,59%
NC/C(=C\F)COc1cccc(Cn2c(=S)[nH]c(=O)c3[nH]cnc32)c1,"Protein-lysine 6-oxidase (Homo sapiens, UniProt P28300)","enzyme activity, inhibitor",,30 µM,inhibition,52.1%
CN(C(=O)n1cnc(-c2ccc[n+]([O-])c2)c1)C1CCCCC1,"Histamine H1 receptor (Bos taurus, UniProt P30546)",binding,,10 µM,inhibition,1.73%
CCNC(=O)Nc1ccccc1OC/C=C\COc1ccccc1NC(=O)NCC,nusB with NusE,"NusE binding, inhibitor, competitive ELISA",,25 µM,inhibition,11%
COc1ccc2c(c1)C(=O)N(CCN1CCN(c3ccccc3OC)CC1)C2,HTR7,radioligand binding,,"concentration not given, together with: [3H]LSD",inhibition,5.3%
Cc1nnc(C(=O)NC(C)(C)c2nc(C(=O)NCc3ccc(F)cc3)c(O)c(=O)n2C)o1,gag-pol integrase,"strand transfer, inhibitor",HIV-1,10 µM,inhibition,82.1%
CCc1ccc(CCNc2cc(=O)[nH]c(=O)[nH]2)cc1,GPR84,"cAMP level, agonist",human cells,,EC50,0.00433 ± 0.00151 µM
Cc1nn(-c2nc3c(F)cc(F)cc3s2)c(O)c1C(c1cccc(C(F)(F)F)c1)c1c(C)nn(-c2nc3c(F)cc(F)cc3s2)c1O,"Cyclic GMP-AMP synthase, catalytic domain; with DNA (CGAS, Homo sapiens, UniProt Q8N884)","cGAS phase separation, inhibitor",,12.5 µM,inhibition,70.1%
c1cncc(OC[C@@H]2CN(CCN3CCc4ccccc43)CCO2)c1,HTR7,radioligand binding,,"concentration not given, together with: [3H]LSD",inhibition,17.7%
CCOC(=O)c1cnn(-c2ccc(NC(=O)C(Cl)=C(Cl)Cl)cc2)c1C(F)(F)F,"Short transient receptor potential channel 7 (Homo sapiens, UniProt Q9HCX4)","ion current, inhibitor, whole-cell patch clamp",,"10 µM, together with: carbachol",inhibition,inhibited
Cc1cccc(-c2cn(C)c3nc(Cl)ccc23)c1,gag-pol integrase,"strand transfer, inhibitor",HIV-1,10 µM,inhibition,19.4%
CC[C@@H]1[C@H](F)C(=O)N[C@@H]1COc1nccc2cc(C(N)=O)c(OC)cc12,"CAMK2B (Homo sapiens, UniProt Q13554)","ATP-site probe binding, ActivX profiling",THP-1 cell lysate,"0.04 mM, Lys1 site",inhibition,12.8%
CCN(CC)c1ccc(C2Nc3ccc(C(=O)c4ccccc4)cc3NC3=C2C(=O)CC(C)(C)C3)cc1 (stereo not shown),calcium channel,binding,,10 µM,inhibition,24%
Nc1ncnc2c1c(COc1cccc(Cl)c1)nn2C1CCOCC1,TGFBR2,inhibitor,,1 µM,inhibition,0%
O=c1oc(-c2ccco2)nc2ccccc12,"Cathepsin G (CTSG, Homo sapiens, UniProt P08311)","enzyme activity, inhibitor, chromogenic substrate hydrolysis",,"concentration not given, pH 7.4, 37 °C",inhibition,inhibited
Cn1cc(-c2cc(C(F)(F)F)cc(C(F)(F)F)c2)c2ccc(Cl)nc21,gag-pol integrase,"strand transfer, inhibitor",HIV-1,10 µM,inhibition,48.3%
Fc1ccc(-c2c(-c3ccncc3)ncn2-c2ccc3ccccc3c2)cc1,TGFBR2,inhibitor,,1 µM,inhibition,36%
Cn1cc(-c2ccc3c(c2)OCO3)c2ccc(Cl)nc21,gag-pol integrase,"strand transfer, inhibitor",HIV-1,10 µM,inhibition,54%
COc1cc2c(cc1OC)C(=O)C(CC1CCN(Cc3ccccc3)CC1)C2 (stereo not shown),"N-acyl-aromatic-L-amino acid amidohydrolase (carboxylate-forming) (Acy3, Mus musculus, UniProt Q91XE4)",inhibitor,,concentration not given,inhibition,no inhibition

# For quick reference, copied from above:
SMILES,target,test,test system,conditions,measurement,value
O=C(CN1CCO[C@@H](COc2ccccn2)C1)N1CCc2ccccc21,HTR2C,radioligand binding,,"concentration not given, together with: [3H]mesulergine",inhibition,28.7%
COc1ccc(-c2ccc3c(-c4ccccc4)cn(C)c3n2)cc1,gag-pol integrase,"strand transfer, inhibitor",HIV-1,10 µM,inhibition,39.3%
CC(C)NC(=O)COc1cccc(-c2nc(Nc3ccc4[nH]ncc4c3)c3ccccc3n2)c1,"UGT1A1 (Homo sapiens, UniProt P22309)",inhibitor,recombinant microsomes,0.1-100 µM,inhibition,inhibited
Clc1cccc(OC[C@@H]2CN(CCN3CCc4ccccc43)CCO2)c1,HTR2C,radioligand binding,,"concentration not given, together with: [3H]mesulergine",inhibition,79.1%
CN1CC(Oc2cnc(C#N)cc2-c2ccn3nc(NC(=O)C4CC4)cc3c2)C1,"MARK1 (Homo sapiens, UniProt Q9P0L2)","inhibitor, KinaseProfiler panel",,1 µM,inhibition,20%
Cc1cc(-c2ccnc3[nH]cc(F)c23)cc(F)c1[C@@]1(O)[C@H](C)CN(C(=O)CN)C[C@@H]1C,ROCK1 and ROCK2,"ATP probe binding, KiNativ, measured: Lys2 site",HEK293T cell lysate,10 µM,inhibition,60.2%
O=C(CCCN1CCC(O)(c2ccc(Cl)cc2)CC1)c1ccc(F)cc1,sigma-2 receptor (guinea pig),radioligand binding,,concentration not given,inhibition,99.6%
N=C(N)c1ccc(OC/C=C\COc2ccc(C(=N)N)cc2)cc1,nusB with NusE,"NusE binding, inhibitor, competitive ELISA",,25 µM,inhibition,0%
